Results collected from several papers.
Each line is one published result; not all experiments were run side by side. Several values in a cell are separate wells, animals, samples, runs or records. ± marks the error that the study gave.
BPTF bromodomain: Nucleosome-remodeling factor subunit BPTF, bromodomain (BPTF, Homo sapiens, UniProt Q12830)
BRD4 BD1: Bromodomain-containing protein 4, BD1 (BRD4, Homo sapiens, UniProt O60885)

For Cn1cnnc1Sc1c2c(c(C#N)c3nc4ccccc4n13)CCCC2, the Kd was 1.1 µM (ERO1-like protein alpha (Homo sapiens, UniProt Q96HE7); binding, biolayer interferometry).
CC(=O)NCCCC[C@H](NC(=O)[C@H](C)NC(=O)[C@H](CCCCN)NC(=O)[C@H](C)NC(=O)[C@H](CCCCN)NC(=O)CNC(=O)[C@H](CO)NC(=O)[C@H](CC(=O)O)NC(=O)[C@H](CCCCN)NC(=O)CNC(=O)[C@H](C)NC(=O)[C@H](CCCCN)NC(=O)CNC(=O)CNC(=O)[C@H](C)NC(=O)[C@@H](N)Cc1ccc(O)cc1)C(=O)N[C@@H](C)C(=O)N[C@H](C(=O)N[C@@H](CO)C(=O)N[C@@H](CCCNC(=N)N)C(N)=O)C(C)C gave a Kd of 1700 µM (BPTF bromodomain; bromodomain binding, PrOF NMR titration; pH 7.4, 5-fluorotryptophan-labelled bromodomain, 40-50 µM).
CCNC(=O)[C@H](C)NC(=O)c1cccc(-c2c(C)noc2C)c1 has a Kd of 15 µM (BRD4 BD1; binding, SPR).
With Cc1cc(N2CC[C@@](C#N)(C3(C)CC3)C2=O)cc(C(=O)NCc2cc(F)cc(-c3cnn(C)c3)c2)n1 the Kd was 0.258 µM and 0.318 µM (Proline--tRNA ligase (Plasmodium falciparum, UniProt Q8I5R7); binding, microscale thermophoresis).
For CCc1nc(-c2cccc(NC(=O)c3cccc(OC)c3)c2)no1, the Kd was 17.8 µM (Cystathionine gamma-synthase 1, chloroplastic (CGS1, Arabidopsis thaliana, UniProt P55217); binding, microscale thermophoresis).
With CCCN(CC(=O)N(CCC)CC(=O)N(CCC)CC(=O)N(CCC)CC(=O)N(CC(=O)N(CCC)CC(=O)N(CCC)CC(=O)N(CCC)CC(=O)N(CCC)CC(=O)N(CC(=O)N(CCC)CC(=O)N(CCC)CC(=O)N(CCC)CC(=O)N(CCC)CC(=O)N(CC(N)=O)Cc1cn(CCCNC(=O)CCCOc2cccc(-c3nc4ccc(-c5nc6ccc(N7CCN(C)CC7)cc6[nH]5)cc4[nH]3)c2)nn1)Cc1cn(CCCNC(=O)CCCOc2cccc(-c3nc4ccc(-c5nc6ccc(N7CCN(C)CC7)cc6[nH]5)cc4[nH]3)c2)nn1)Cc1cn(CCCNC(=O)CCCOc2cccc(-c3nc4ccc(-c5nc6ccc(N7CCN(C)CC7)cc6[nH]5)cc4[nH]3)c2)nn1)C(=O)CNCc1cn(CCCNC(=O)CCCOc2cccc(-c3nc4ccc(-c5nc6ccc(N7CCN(C)CC7)cc6[nH]5)cc4[nH]3)c2)nn1 the Kd was 0.035 ± 0.004 µM (r(CUG)109 RNA hairpin; binding, fluorescence).
The Kd of CNC(=O)CCN(Cc1ccc(C(F)F)cc1)C(=O)c1cc2c(OC)ccc(-c3ccc(=O)n(C)c3)c2s1 is reported as 0.32 µM (BRD4 BD1; binding, competition with immobilised ligand).
The growth percent of COc1cc(CNC(=O)C[C@H](C)CCC=C(C)C)ccc1OCc1cn(-c2cccc(Cl)c2)nn1 is reported as 97.4% (SW-620; SRB; 10 µM, 48 h).
For CC[C@H](C)[C@H](NC(=O)[C@H](CC(=O)O)NC(=O)[C@H](CC(=O)O)NC(=O)[C@@H]1CCCN1C(=O)[C@H](CC(=O)O)NC(=O)[C@H](CC(C)C)NC(=O)[C@H](CCSC)NC(=O)[C@H](CC(C)C)NC(=O)[C@H](CC(=O)O)NC(=O)[C@H](CC(=O)O)NC(=O)[C@H](CCSC)NC(=O)[C@H](C)NC(=O)[C@H](CCC(N)=O)NC(=O)[C@H](CC(=O)O)NC(=O)[C@@H]1CCCN1C(=O)[C@H](CC(C)C)NC(=O)[C@@H]1CCCN1C(=O)[C@H](CC(=O)O)NC(=O)[C@H](CC(C)C)NC(=O)[C@@H](NC(=O)[C@H](CC(N)=O)NC(=O)[C@H](CC(N)=O)NC(=O)[C@H](CCC(=O)O)NC(=O)[C@@H]1CCCN1C(=O)[C@H](CC(C)C)NC(=O)[C@H](CC(C)C)NC(=O)[C@H](CCCCN)NC(=O)[C@H](Cc1c[nH]c2ccccc12)NC(=O)[C@H](CC(C)C)NC(=O)[C@H](CC(=O)O)NC(=O)[C@H](CC(=O)O)NC(=O)[C@H](Cc1ccccc1)NC(=O)[C@H](CC(=O)O)NC(=O)[C@H](CCC(=O)O)NC(=O)[C@H](CCC(N)=O)NC(=O)[C@H](CC(=O)O)NC(=O)[C@H](CC(C)C)NC(=O)[C@@H]1CCCN1C(=O)[C@@H]1CCCN1C(=O)[C@H](CCC(=O)O)NC(=O)[C@@H](N)C(C)C)C(C)C)C(=O)N[C@@H](CCC(=O)O)C(=O)N[C@@H](CCC(N)=O)C(=O)N[C@@H](Cc1c[nH]c2ccccc12)C(=O)N[C@@H](Cc1ccccc1)C(=O)N[C@@H](CC(=O)O)C(=O)N[C@@H](CCC(=O)O)C(=O)N[C@@H](CC(=O)O)C(=O)O, the Kd was 3.2 ± 0.11 µM (Histone acetyltransferase p300, IBiD domain (EP300, Homo sapiens, UniProt Q09472); fluorescence anisotropy; IBiD domain, with: labelled p53 TAD peptide).
With CC(=O)NCCCC[C@H](NC(=O)[C@H](C)NC(=O)[C@H](CCCCN)NC(=O)CNC(=O)[C@H](CO)NC(=O)[C@H](CC(=O)O)NC(=O)[C@H](CCCCN)NC(=O)CNC(=O)[C@H](C)NC(=O)[C@H](CCCCN)NC(=O)CNC(=O)CNC(=O)[C@H](C)NC(=O)[C@@H](N)Cc1ccc(O)cc1)C(=O)N[C@@H](C)C(=O)N[C@@H](CCCCN)C(=O)N[C@@H](C)C(=O)N[C@H](C(=O)N[C@@H](CO)C(=O)N[C@@H](CCCNC(=N)N)C(N)=O)C(C)C the Kd was 1730 µM (BPTF bromodomain; bromodomain binding, PrOF NMR titration; pH 7.4, 5-fluorotryptophan-labelled bromodomain, 40-50 µM).
For COc1cc(CNC(=O)C[C@H](C)CCC=C(C)C)ccc1OCc1cn(-c2ccc(C#N)cc2)nn1, the growth percent was 60% (OVCAR-8 ovarian cancer cells; SRB; 10 µM, 48 h).
For CC[C@H](C)[C@H](NC(=O)[C@H](CCC(=O)O)NC(=O)[C@@H](NC(=O)[C@H](CCC(N)=O)NC(=O)[C@@H](N)CCCCN)[C@@H](C)CC)C(=O)N[C@@H](CCCCN)C(=O)N[C@@H](CCCCN)C(=O)N[C@@H](Cc1ccccc1)C(=O)N[C@@H](CCCCN)C(=O)O, the Kd was about 2.5 µM (Gap junction alpha-1 protein, C-terminal tail 255-382 (GJA1, Homo sapiens, UniProt P17302); binding, SPR; Cx43 C-terminal tail).
OC[C@H]1Oc2c(Cc3ccccc3)c(Cc3ccccc3)cc3c2[C@@H](OC3)[C@H]1O has a Kd of 310 µM (Galectin-1 (LGALS1, Homo sapiens, UniProt P09382); ligand displacement, FP).
C[C@H](NC(=O)[C@H](Cc1ccc(O)cc1)NC(=O)[C@H](Cc1ccccc1)NC(=O)[C@H](CCC(=O)O)NC(=O)[C@H](CCCCN)NC(=O)[C@@H](NC(=O)[C@@H]1CCCN1C(=O)[C@H](C)NS(=O)(=O)c1cccc2c(N(C)C)cccc12)[C@@H](C)O)C(=O)O has a Kd of 453 ± 22 µM (Rho guanine nucleotide exchange factor TIAM1, PDZ domain (TIAM1, Homo sapiens, UniProt Q13009); fluorescence anisotropy; 25 °C, PDZ domain).
CC(C)C[C@H](NC(=O)[C@H](CC(C)C)NC(=O)[C@H](CC(C)C)NC(=O)[C@H](CO)NC(=O)[C@H](CCCCN)NC(=O)[C@H](CCC(N)=O)NC(=O)[C@H](CCCCN)NC(=O)[C@H](Cc1ccccc1)NC(=O)[C@H](Cc1ccccc1)NC(=O)[C@@H]1CCCN1C(=O)[C@H](CCC(=O)O)NC(=O)[C@@H](NC(=O)CNC(=O)[C@@H](NC(=O)[C@H](CO)NC(=O)[C@H](CCC(N)=O)NC(=O)[C@@H](N)CS)[C@@H](C)O)[C@@H](C)O)C(=O)O gave a Kd of about 69 µM (DNA repair protein REV1 (Homo sapiens, UniProt Q9UBZ9); binding, SPR; pH 7.5).
With COc1ccc(Cc2cc3c4c(c2)O[C@H](CO)[C@H](O)[C@@H]4OC3)cc1 the Kd was over 1000 µM (Galectin-9 (LGALS9, Homo sapiens, UniProt O00182); cell-free assay, FP).
The Kd of O=C(Cc1cccc(C(F)(F)F)c1)Nc1cc(Oc2c(F)cc3nc(NC(=O)C4CC4)sc3c2F)ccc1F is reported as over 5 µM (RIPK3 (Homo sapiens, UniProt Q9Y572); binding, competition with immobilised ligand).
For NCCCC[C@H](NC(=O)[C@H](CC(N)=O)NC(=O)[C@H](CCCCNC(=O)[C@H](Cc1ccc(B(O)O)cc1)NC(=O)[C@H](Cc1ccc(O)cc1)NC(=O)[C@@H](N)Cc1ccc(B(O)O)cc1)NC(=O)[C@H](Cc1ccc(B(O)O)cc1)NC(=O)[C@H](Cc1ccc(O)cc1)NC(=O)[C@@H](N)Cc1ccc(B(O)O)cc1)C(=O)N[C@@H](CO)C(=O)N[C@@H](Cc1ccc(O)cc1)C(N)=O, the Kd was 4.6 µM (HIV-1 RRE IIB RNA; binding, EMSA).
O=C(O)c1cc(I)cc(I)c1O has a Kd of about 800 µM (TP53 (Homo sapiens, UniProt P04637, M133L/N239Y/N268D/V203A/Y220C); 20 °C, protein 75 µM).
With NC(=O)CNC(=O)CN(CCc1ccc(C(F)(F)F)cc1)C(=O)[C@@H](Cc1ccccc1)NC(=O)CNCc1ccc(Cl)c(Cl)c1 the Kd was over 200 µM (MMP14 (Homo sapiens, UniProt P50281); binding, FP).
For CC(=O)NCCCC[C@H](NC(=O)CNC(=O)CNC(=O)[C@H](C)NC(=O)[C@@H](N)Cc1ccc(O)cc1)C(=O)N[C@@H](C)C(=O)NCC(=O)N[C@@H](CCCCNC(C)=O)C(=O)N[C@@H](CC(=O)O)C(=O)N[C@@H](CO)C(=O)NCC(=O)N[C@@H](CCCCNC(C)=O)C(=O)N[C@@H](C)C(=O)N[C@@H](CCCCN)C(=O)N[C@@H](C)C(=O)N[C@@H](CCCCN)C(=O)N[C@@H](C)C(=O)N[C@H](C(=O)N[C@@H](CO)C(=O)N[C@@H](CCCNC(=N)N)C(N)=O)C(C)C, the Kd was 810 µM (BPTF bromodomain; bromodomain binding, PrOF NMR titration; pH 7.4, 5-fluorotryptophan-labelled bromodomain, 40-50 µM).
For CC[C@H](C)[C@H](NC(=O)[C@H](CCCCN)NC(=O)[C@H](CCCCN)NC(=O)[C@@H](NC(=O)[C@H](CCC(=O)O)NC(=O)[C@H](CCC(=O)O)NC(=O)[C@H](CCC(=O)O)NC(=O)[C@H](CO)NC(=O)[C@H](C)NC(=O)[C@H](CC(=O)O)NC(=O)[C@H](CC(C)C)NC(=O)CNC(=O)[C@H](CCCNC(=N)N)NC(=O)[C@H](CC(C)C)NC(=O)[C@H](CO)NC(=O)CNC(=O)CNC(=O)CNC(=O)CCCC[C@@H]1SC[C@@H]2NC(=O)N[C@@H]21)C(C)C)C(=O)N[C@@H](CC(C)C)C(=O)N[C@@H](CC(=O)O)C(=O)N[C@@H](CCC(=O)O)C(=O)N[C@H](C(=O)N[C@H](C(=O)N[C@@H](CCCCN)C(=O)N[C@@H](CC(=O)O)C(=O)O)C(C)C)[C@@H](C)CC, the Kd was 0.2 ± 0.005 µM (Fab B11 antibody (human); binding, biolayer interferometry; with: biotinylated peptide on tips).
